{"data": "Assay results of several laboratories", "note": "Each numbered part is a random draw from the data of one study; scales do not carry over between parts."}
{"data": "Block 1", "target": "Phosphate system positive regulatory protein PHO4, full length, GST-tagged (PHO4, Saccharomyces cerevisiae, UniProt P07270, residues 1-312)", "technique": "competition protein-binding microarray", "form": "double-stranded DNA, one strand shown", "matrix": "in vitro", "concentration": "2 µM", "notes": "whole 60-bp probe, lowest competitor level", "together with": "Cbf1 competitor, 0.05 µM", "direction": "higher = stronger binding", "constant ends, left off below": "… GTCTTGATTCGCTTGACGCTGCTG", "Residues (chain)": "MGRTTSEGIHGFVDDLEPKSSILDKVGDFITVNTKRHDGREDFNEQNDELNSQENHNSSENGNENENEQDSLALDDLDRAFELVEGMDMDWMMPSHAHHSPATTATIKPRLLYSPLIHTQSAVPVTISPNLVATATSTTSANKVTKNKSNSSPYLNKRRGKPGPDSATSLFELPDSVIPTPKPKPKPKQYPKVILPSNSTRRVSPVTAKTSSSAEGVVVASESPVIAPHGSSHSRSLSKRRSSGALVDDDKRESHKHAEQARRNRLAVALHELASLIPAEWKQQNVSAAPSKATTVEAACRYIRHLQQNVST"}
{"Sequence": "GGTAACACCTTCGAAACCGTGACTCGTCTTGACAGC", "fluorescence intensity [a.u.]": 4770}
{"Sequence": "CTTTCCCGATCTTGGTGAGTGGGTGTAGCACATTTG", "fluorescence intensity [a.u.]": 4940}
{"Sequence": "CACCGAATTTCCTGGCACGATCGTTGTTACCAGCTG", "fluorescence intensity [a.u.]": 8340}
{"Sequence": "ATTTGAGAATATACTGTCGTGACGAAGTCAATGACA", "fluorescence intensity [a.u.]": 4400}
{"Sequence": "AACCTACATTCTATTCTCGTGATGGTTCTCGTAATT", "fluorescence intensity [a.u.]": 4970}
{"data": "Block 2", "target": "Histone acetyltransferase KAT6A, winged helix 1, GST fusion (KAT6A, Homo sapiens, UniProt Q92794, residues 1-85)", "technique": "protein binding microarray", "form": "double-stranded DNA, one strand shown", "matrix": "in vitro", "concentration": "not given", "notes": "8-mer, flanks averaged, mean of 2 arrays, mostly near background", "relative to": "not given", "direction": "higher = stronger binding", "Target sequence (chain)": "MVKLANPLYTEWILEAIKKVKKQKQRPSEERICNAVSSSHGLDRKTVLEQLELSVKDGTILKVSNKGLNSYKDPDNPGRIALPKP"}
{"Sequence": "GGCTGATA", "E-score": 0.0888}
{"Sequence": "ACATGAAT", "E-score": -0.232}
{"Sequence": "ATCTGCAG", "E-score": -0.167}
{"Sequence": "AGTGCCCC", "E-score": 0.115}
{"Sequence": "GCTCTTAC", "E-score": 0.0154}
{"data": "Block 3", "target": "Interferon regulatory factor 3, full length, phosphomimetic (IRF3, Homo sapiens, UniProt Q14653, residues 1-427, S386D/S396D/S398D/S402D/T404D/S405D)", "technique": "protein-binding microarray", "form": "double-stranded DNA, one strand shown", "matrix": "in vitro", "concentration": "2540 nM top", "notes": "60-bp whole probe", "together with": "salmon DNA 0.4 mg/ml", "relative to": "random background probes", "direction": "higher = stronger binding", "UniProt Q14653, sequence (whole entry, unmodified, looked up)": "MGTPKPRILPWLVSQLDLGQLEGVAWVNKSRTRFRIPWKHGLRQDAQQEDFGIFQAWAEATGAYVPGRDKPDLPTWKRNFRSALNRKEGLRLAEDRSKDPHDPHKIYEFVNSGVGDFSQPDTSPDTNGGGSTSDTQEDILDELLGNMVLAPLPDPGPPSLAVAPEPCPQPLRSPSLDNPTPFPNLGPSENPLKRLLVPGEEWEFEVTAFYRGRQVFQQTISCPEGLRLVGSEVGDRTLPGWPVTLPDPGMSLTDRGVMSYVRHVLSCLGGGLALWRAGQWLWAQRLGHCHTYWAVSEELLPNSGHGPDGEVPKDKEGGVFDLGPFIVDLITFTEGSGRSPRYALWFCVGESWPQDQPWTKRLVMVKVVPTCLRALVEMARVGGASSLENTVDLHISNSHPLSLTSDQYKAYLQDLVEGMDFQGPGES"}
{"Sequence": "GCCTAGCACTATGTCTGGCCCAAGCAGCCGTGCTAGGTCTTGATTCGCTTGACGCTGCTG", "fitted relative affinity [z-score]": -0.858}
{"Sequence": "GCCTAGCACTCAGCATTTTTTTTATCACTGTGCTAGGTCTTGATTCGCTTGACGCTGCTG", "fitted relative affinity [z-score]": 0.193}
{"Sequence": "GCCTAGCACGACGGTCTTCTTATCCTGACGTGCTAGGTCTTGATTCGCTTGACGCTGCTG", "fitted relative affinity [z-score]": 0.662}
{"data": "Mixed results"}
{"Substance": "PhoQ, residues 284 288 289 292 302 303 AAQSYM", "target": "PhoP, residues 12 14 15 18 19 LQHIR (Escherichia coli, UniProt P23836)", "test": "Sort-seq, measured: YFP reporter", "system": "E. coli", "setting": "PhoQ-PhoP variant library, together with: 10 µM Mg2+", "how to read": "relative to: high Mg2+ state, higher = stronger signaling", "endpoint": "fold induction", "result": 17.1}
